Assay results gathered from unrelated publications.
Protocols differ between the studies behind these lines.
HLA class I histocompatibility antigen, A alpha chain allele A*01:01: HLA class I histocompatibility antigen, A alpha chain, allele A*01:01 (Homo sapiens, UniProt P04439)
HLA class I histocompatibility antigen, A alpha chain allele A*26:01: HLA class I histocompatibility antigen, A alpha chain, allele A*26:01 (Homo sapiens, UniProt P04439)

CSCC[C@H](NC(=O)[C@@H](N)Cc1ccc(O)cc1)C(=O)N[C@@H](CC(=O)O)C(=O)N1CCC[C@H]1C(=O)N[C@H](C(=O)N1CCC[C@H]1C(=O)N[C@@H](CC(C)C)C(=O)N[C@@H](CCC(N)=O)C(=O)N[C@@H](Cc1ccccc1)C(=O)O)C(C)C
IC50 (HLA class I histocompatibility antigen, A alpha chain allele A*01:01; binding): 0.116 µM

C[C@@H](O)[C@H](NC(=O)[C@@H](N)CCCCN)C(=O)N[C@@H](CC(=O)O)C(=O)N[C@@H](CC(N)=O)C(=O)N[C@@H](CC(N)=O)C(=O)N[C@@H](CC(N)=O)C(=O)N[C@@H](CO)C(=O)N[C@@H](CC(N)=O)C(=O)N[C@@H](Cc1ccccc1)C(=O)O
Kd (HLA class I histocompatibility antigen, A alpha chain allele A*01:01; binding, fluorescence competition; 2 days, HLA-A*0101, added: 6-FAM-labelled peptide tracer): 8.2 µM

CC[C@H](C)[C@H](NC(=O)[C@@H](N)Cc1c[nH]cn1)C(=O)N[C@@H](Cc1ccccc1)C(=O)N[C@@H](CO)C(=O)N[C@@H](CCCNC(=N)N)C(=O)N1CCC[C@H]1C(=O)N[C@@H](CCSC)C(=O)N[C@H](C(=O)N[C@@H](Cc1ccccc1)C(=O)O)[C@@H](C)O
IC50 (HLA class I histocompatibility antigen, A alpha chain, allele A*02:01 (Homo sapiens, UniProt P04439); binding): 35 µM

CC[C@H](C)[C@H](NC(=O)[C@H](CCCNC(=N)N)NC(=O)CNC(=O)[C@@H](NC(=O)[C@@H]1CCCN1C(=O)[C@@H](N)CCSC)[C@@H](C)CC)C(=O)N[C@@H](C)C(=O)N[C@@H](CCC(=O)O)C(=O)N[C@@H](CS)C(=O)N[C@H](C(=O)N[C@@H](CC(C)C)C(=O)O)[C@@H](C)CC
IC50 (HLA class I histocompatibility antigen, A alpha chain allele A*01:01; binding, competitor, radioligand competition; two days, room temperature, HLA-A*01:01): > 40 µM

CC[C@H](C)[C@H](NC(=O)[C@H](CCCCN)NC(=O)[C@H](Cc1ccccc1)NC(=O)[C@H](Cc1ccc(O)cc1)NC(=O)CNC(=O)[C@H](CC(=O)O)NC(=O)[C@@H](NC(=O)[C@H](CC(N)=O)NC(=O)[C@@H](N)CCCCN)[C@@H](C)CC)C(=O)N[C@@H](Cc1ccc(O)cc1)C(=O)O
IC50 (HLA class I histocompatibility antigen, A alpha chain allele A*26:01; peptide-MHC binding, radioligand competition binding): > 70 µM

C[C@H](NC(=O)[C@@H](N)CO)C(=O)N[C@@H](CC(=O)O)C(=O)N[C@@H](CC(N)=O)C(=O)N[C@@H](CC(N)=O)C(=O)N[C@@H](CC(N)=O)C(=O)N[C@@H](CO)C(=O)N[C@@H](CCC(=O)O)C(=O)N[C@@H](Cc1ccc(O)cc1)C(=O)O
Kd (HLA class I histocompatibility antigen, A alpha chain allele A*01:01; binding, fluorescence competition; 2 days, HLA-A*0101, added: 6-FAM-labelled peptide tracer): 6.75 µM

CSCC[C@H](NC(=O)[C@H](CCC(=O)O)NC(=O)[C@H](CCC(=O)O)NC(=O)[C@@H](N)CCCNC(=N)N)C(=O)N[C@@H](CCC(=O)O)C(=O)N[C@H](C(=O)N[C@@H](Cc1c[nH]cn1)C(=O)N[C@@H](CCC(=O)O)C(=O)N[C@@H](CC(C)C)C(=O)O)C(C)C
IC50 (HLA class I histocompatibility antigen, A alpha chain allele A*01:01; binding, competitor, radioligand competition; two days, room temperature, HLA-A*01:01): > 40 µM

CC[C@H](C)[C@H](NC(=O)[C@H](CC(C)C)NC(=O)CNC(=O)[C@H](CCCNC(=N)N)NC(=O)[C@H](CC(C)C)NC(=O)[C@@H](NC(=O)[C@H](CCSC)NC(=O)[C@@H]1CCCN1C(=O)CN)C(C)C)C(=O)N[C@H](C(=O)O)[C@@H](C)O
IC50 (HLA class I histocompatibility antigen, A alpha chain allele A*26:01; peptide-MHC binding, radioligand competition binding): 0.884 µM

CC(C)[C@H](NC(=O)CNC(=O)CNC(=O)[C@@H](NC(=O)[C@H](CO)NC(=O)[C@@H]1CCCN1C(=O)[C@H](C)NC(=O)[C@H](CO)NC(=O)[C@H](CCCCN)NC(=O)[C@@H](N)CCCNC(=N)N)[C@@H](C)O)C(=O)O
IC50 (HLA class I histocompatibility antigen, A alpha chain, allele A*02:03 (Homo sapiens, UniProt P04439); binding): > 38.7 µM

Some of these lines once more:
CC[C@H](C)[C@H](NC(=O)[C@H](CC(C)C)NC(=O)CNC(=O)[C@H](CCCNC(=N)N)NC(=O)[C@H](CC(C)C)NC(=O)[C@@H](NC(=O)[C@H](CCSC)NC(=O)[C@@H]1CCCN1C(=O)CN)C(C)C)C(=O)N[C@H](C(=O)O)[C@@H](C)O
IC50 (HLA class I histocompatibility antigen, A alpha chain allele A*26:01; peptide-MHC binding, radioligand competition binding): 0.884 µM
